Published values of several laboratories.
Each line is one published result; not all experiments were run side by side. Values joined by “and” are separate records of one study, mostly repeats; a detail may differ. Numbers after ± are the reported error.

For CC1(c2cc(F)ccc2F)CC1NC(=O)NCC1(C(=O)O)CCCC1 (centres unmarked), “DLS scattered light intensity” read 1.66e+06 counts/s (colloidal aggregate formation, dynamic light scattering; 50 mM potassium phosphate buffer; 200 µM, pH 7.0, 1% DMSO; higher = more aggregation).
CCN1CCN(Cc2ccc(Nc3ncc(F)c(-c4cc(F)c5nc6n(c5c4)[C@H](C)CCC6)n3)nc2)CC1 gave a Tmax of 6.05 h (human, plasma; 500 mg multiple dosing, median).
For COc1cccc(OC)c1-c1cc(C(=O)NC2(C(=O)O)C3CC4CC(C3)CC2C4)nn1-c1ccc(C(=O)N(C)CCCN(C)CCCN(C)C(=O)CN2CCN(CC(=O)[O-])CCN(CC(=O)[O-])CCN(CC(=O)[O-])CC2)cc1C(C)C.[177Lu+3] (centres unmarked), the tumour-to-brain ratio was 62.2 (mouse, HT-29 xenograft; 4 h post injection, biodistribution; reference: tumour over brain uptake).
Cc1ccc(O)c(-n2nc3ccccc3n2)c1: “daily dermal uptake, percentile” 1940 ng/kg body weight/day (exposure assessment; human, age 16-21 years; concentration not given, cream, 95th percentile).
With Cl.[2H]C([2H])([2H])CC(=O)c1cnc(NC(=O)C2CC2)cc1Nc1cccc(-c2ncn(C([2H])([2H])[2H])n2)c1OC the Tmax was 1.53 h (human, fasted, multiple dose; oral, 20 mg once daily, tablet, day 1, median).
For C[C@H](O)C(=O)C1=Nc2c(nc(N)[nH]c2=O)NC1, “moderate TEAE incidence” read 0% (healthy human volunteers; oral, 20 mg/kg, 4 days, monotherapy; reference: subjects).
C[C@@H]1COCCN1c1cc(C2([S@](C)(=N)=O)CC2)nc(-c2cc[nH]c3nccc2-3)n1 gave a Pyrexia incidence of 16.7% (Japanese advanced solid tumour patients; oral, 160 mg twice daily, any grade).
CO[C@H]1C[C@@H]2CC[C@@H](C)[C@@](O)(O2)C(=O)C(=O)N2CCCC[C@H]2C(=O)O[C@H]([C@H](C)C[C@@H]2CC[C@@H](O)[C@H](OC)C2)CC(=O)[C@H](C)/C=C(\C)[C@@H](O)[C@@H](OC)C(=O)[C@H](C)C[C@H](C)/C=C/C=C/C=C/1C gave a rectal temperature of 37.4 ± 0.3 °C (healthy adult horses; intravenous, 0.06 mg/kg, 10 h).
With CNC(=O)c1cc(Oc2ccc(NC(=O)N(c3ccc(Cl)c(C(F)(F)F)c3)[C@@H]3O[C@H](C(=O)O)[C@@H](O)[C@H](O)[C@H]3O)cc2)ccn1 the AUC(0-7.5 h) was 3970 ng·h/mL (mouse, wild type, plasma; oral, 10 mg/kg, without rifampin, geometric mean).
CC(C)(Sc1ccncc1-c1ccc(C#N)c2ccccc12)C(=O)O: “fraction excreted in urine (0-24 h)” 1.8% (human, urine; oral, 15 mg, added: febuxostat 0 mg).
For Cn1cc(Nc2nccc(-c3ccc4c(c3)CN(C3COC3)CC[C@H]4NC(=O)c3cn(C(C)(C)C)nn3)n2)cn1, “percent change from baseline” read 4.86% (measured: class-switched memory B cells; human, clinical trial, whole blood; 50 mg twice daily, follow-up).
COc1ccnc(C(N)=O)c1O — result for “Freundlich coefficient KF”: 14.2 mL/g (soil adsorption; soil; pH 6.9, organic carbon 0.8 %).
CC(C)C[C@H](NC(=O)C[C@H](O)[C@H](CC(C)C)NC(=O)[C@H](Cc1c[nH]cn1)NC(=O)CNC(=O)[C@@H](NC(=O)[C@H](C)NC(=O)[C@H](Cc1c[nH]c2ccccc12)NC(=O)[C@H](CCC(N)=O)NC(=O)[C@@H](Cc1ccccc1)NC(=O)COCCOCCNC(=O)CCC(C(=O)O)N1CCN(CC(=O)O)CCN(CC(=O)O)CCN(CC(=O)O)CC1)C(C)C)C(N)=O (some centres unmarked) [lutetium-177 labelled] has a tissue uptake of 0.19 ± 0.03 %ID/g (BALB/c nu/nu mice, spleen; intravenous, 500 pmol, 1 h, added: PA 300 µg).
For FC(F)(F)c1ccc(CNc2ccc(Cc3c[nH]c4ncc(Cl)cc34)cn2)cn1, “dry mouth incidence” read 0% (patients with advanced solid tumours; oral, 1000 mg/day, non-TGCT cohort, grade ≥3).
For O=C1CCc2ccc(OCCCCN3CCN(c4cccc(Cl)c4Cl)CC3)cc2N1, “adverse event incidence” read 8.9% (measured: Tremor; patients, CYP2D6 intermediate metabolizers; dose not given, long-acting oral or depot).
Under “DLS scattered light intensity”, O=S(=O)(NCC(F)(F)c1ccc(Cl)c(Cl)c1)c1cccc(Cl)c1O is recorded as 1.06e+06 counts/s (colloidal aggregate formation, dynamic light scattering; 50 mM potassium phosphate buffer; 200 µM, pH 7.0, 1% DMSO; higher = more aggregation).
C[C@@H]1CN(c2c(F)c(N)c3c(=O)c(C(=O)O)cn(C4CC4)c3c2F)C[C@H](C)N1 gave a QTc interval of 380 ± 1.5 ms (male Hartley guinea pig, anaesthetized; intravenous infusion, 30 mg/kg, 10 min infusion, post-infusion).
Under “adverse event incidence”, O=C(COc1ccc(Cl)cc1)NC12CC(c3nnc([C@H]4C[C@@H](OC(F)(F)F)C4)o3)(C1)C2 is recorded as 28.6% (measured: Fatigue; human; oral, 200 mg once daily, 14 days).
For Cc1c(Cl)c(C)[n+]([O-])c(Cl)c1-c1noc(-c2cc(O)c(O)c([N+](=O)[O-])c2)n1, “serious TEAE incidence” read 0% (healthy Chinese subjects; oral, 100 mg).
Under “plasma concentration at 24 h”, Cc1ccc(C(=O)N(CCCN)C(c2nc3snc(C)c3c(=O)n2Cc2ccccc2)C(C)C)cc1 (centres unmarked) is recorded as 48 ng/mL (human patients, plasma; intravenous, 18 mg/day, day 3 of induction course, geometric mean).
The AUC(0-t) ratio of CC[C@@]1(O)C(=O)OCc2c1cc1n(c2=O)Cc2c-1nc1cc(F)c(C)c3c1c2[C@@H](N)CC3 is reported as about 2 fold (measured: free payload; BALB/c nude mice, NCI-H1975/C797S xenograft, tumour; intravenous, 10 mg/kg; reference: NCI-H1975 tumours over NCI-H1975/C797S tumours).
For CCc1cc(C(=O)NC)c2nccc(N3CCc4c(cc(Cn5ccnc5)cc4-c4cn(C)nc4C(F)(F)F)C3=O)c2c1, the blood MCHC was 299 ± 5.6 g/L (Sprague Dawley rats; oral, 100 mg/kg once daily, 7 days).
The DHEA-S level of N#Cc1ccc2c(c1)[C@H]1CCCN(C(=O)c3ccc4[nH]cnc4c3)[C@H]1C2 is reported as 2.2 µmol/L (human, female; 10 mg, end of trial).
With COc1ccc2c(c1)CN(C(=O)CCN1CCC(Cc3ccccc3)CC1)CC[S@@+]2[O-] the QTcF was 421 ± 20.1 ms (healthy male volunteers; intravenous, 0.6 mg/kg, post-dose).
CNC(=O)c1ccc(-c2cnc3ncc(Cc4ccc5ncccc5c4)n3n2)cc1F — result for “Lipase increased dose reduction/interruption”: 2% (Japanese patients; oral, 400 mg, grade 3/4).
Cc1cc(C)c(CNC(=O)c2cc(Cl)c3c(c2C)O[C@@](C)([C@H]2CC[C@H](N(C)C)CC2)O3)c(=O)[nH]1: “grade ≥3 adverse event Thrombocytopenia” 4.2% (relapsed/refractory NHL patients; oral, 200 mg once daily, onset after cycle 1 day 1).
CCCC1CCC(c2ccc(-c3ccc(F)c(F)c3)cc2)CC1 (centres unmarked) has a concentration of 1 ng/mL (measured: compound; human pregnant women, male fetuses, cord serum; dose not given, paired maternal-cord samples, mean).
Cc1c(-c2ccc(N3CCc4cccc(C(=O)Nc5nc6ccccc6s5)c4C3)nc2C(=O)O)cnn1CC12CC3(C)CC(C)(C1)CC(OCCNCC[C@H](O)CO)(C3)C2 — result for “PR interval change”: -3 ms (beagle dog, anaesthetised; intravenous infusion, 0.3 mg/kg/min, 75 min; reference: vehicle).
For COc1ccc2[nH]c([S+]([O-])Cc3ncc(C)c(OC)c3C)nc2c1 (centres unmarked), the Cmax was 521 ± 311 ng/mL (healthy Chinese volunteers, plasma; oral, 20 mg, enteric-coated tablets, CYP2C19 intermediate metabolizers).
The HC50 of O=C(O)c1cc(Br)ccc1F is reported as over 128 µg/mL (haemolysis; sheep erythrocytes; 1 h, pH 7.5).
CCCCCCCOc1ccc(CCC(N)(CO)CO)cc1C(F)(F)F.Cl gave a urinary excretion of 0.06% (healthy men, urine; oral, 0.125 mg once daily, day 21, fed state; reference: dose).
For Cn1cc(-c2ccc(-c3cncc(Cl)c3N3CCC4(CCNC4=O)CC3)cc2)cn1, “log2 fold change” read 2.02 (COLO 205; gene expression, microarray, measured: PLAUR mRNA; concentration not given, 2 h; reference: untreated cells).
CC(C)n1c(Nc2cccnc2)nc2cnc(Nc3ccc(N4CCN(C)CC4)cc3)nc21 — result for “subjects with adverse event”: 14.3% (measured: creatine phosphokinase increased; healthy male subjects; oral, 100 mg, study, added: gemfibrozil).
For Cn1c(C(F)(F)F)cc(=O)n(-c2cc(Oc3cccnc3OCC(=O)O)c(Cl)cc2F)c1=O, the AUC(0-24 h) was 6240 ng·h/mL (Crl:CD(SD) rats, female, plasma; oral diet, 300 ppm in diet, day 1, 90-day toxicity study).
For COC(=O)C1CC(C(NS(=O)(=O)c2cccc(Cl)c2O)C(=O)OC)C1 (centres unmarked), “DLS scattered light intensity” read 391000 counts/s (colloidal aggregate formation, dynamic light scattering; 50 mM potassium phosphate buffer; 200 µM, pH 7.0, 1% DMSO; higher = more aggregation).
For CCc1c(-c2ccccc2)c(-c2ccccc2)nn1-c1ccccc1-c1cccc(OCC(=O)O)c1, the terminal half-life was 2.09 h and 1.77 h and 1.46 h (Sprague-Dawley rat; intravenous).
C[C@@H](Nc1cc(F)cc(F)c1)c1cc(C(=O)N(C)C)cc2c(=O)cc(N3CCOCC3)oc12 has an AUC(0-12) of 1560 ng·h/mL (human; 60 mg twice daily, vistusertib alone, geometric LSM).
CCO[C@H]1CCN(Cc2c(OC)cc(C)c3[nH]ccc23)[C@H](c2ccc(C(=O)O)cc2)C1 — result for “incidence of flatulence”: 0% (PNH patients, active haemolysis; oral, 25 mg, 4 weeks, treatment).
The CL/F of O=C(c1cccnc1-c1ccncc1)N1CCC(O)(Cc2ccccc2)CC1 is reported as 452 L/h (healthy Japanese adults, plasma; oral, 100 mg twice daily, day 1).
CC(Cc1c(Cl)cccc1Cl)NS(=O)(=O)c1ccoc1C(=O)O (centres unmarked) — result for “DLS scattered light intensity”: 573000 counts/s (colloidal aggregate formation, dynamic light scattering; 50 mM potassium phosphate buffer; 200 µM, pH 7.0, 1% DMSO; higher = more aggregation).
NC1(C(=O)N[C@@H](CCO)c2ccc(Cl)cc2)CCN(c2nc[nH]c3nccc2-3)CC1: “incidence of SIRS” 0% (metastatic CRPC patients; 320 mg b.i.d., grade 3 to 4, treatment-related, added: enzalutamide 160 mg daily).

Repeated from above:
For CCc1cc(C(=O)NC)c2nccc(N3CCc4c(cc(Cn5ccnc5)cc4-c4cn(C)nc4C(F)(F)F)C3=O)c2c1, the blood MCHC was 299 ± 5.6 g/L (Sprague Dawley rats; oral, 100 mg/kg once daily, 7 days).
The DHEA-S level of N#Cc1ccc2c(c1)[C@H]1CCCN(C(=O)c3ccc4[nH]cnc4c3)[C@H]1C2 is reported as 2.2 µmol/L (human, female; 10 mg, end of trial).
With COc1ccc2c(c1)CN(C(=O)CCN1CCC(Cc3ccccc3)CC1)CC[S@@+]2[O-] the QTcF was 421 ± 20.1 ms (healthy male volunteers; intravenous, 0.6 mg/kg, post-dose).
CNC(=O)c1ccc(-c2cnc3ncc(Cc4ccc5ncccc5c4)n3n2)cc1F — result for “Lipase increased dose reduction/interruption”: 2% (Japanese patients; oral, 400 mg, grade 3/4).
Cc1cc(C)c(CNC(=O)c2cc(Cl)c3c(c2C)O[C@@](C)([C@H]2CC[C@H](N(C)C)CC2)O3)c(=O)[nH]1: “grade ≥3 adverse event Thrombocytopenia” 4.2% (relapsed/refractory NHL patients; oral, 200 mg once daily, onset after cycle 1 day 1).
CCCC1CCC(c2ccc(-c3ccc(F)c(F)c3)cc2)CC1 (centres unmarked) has a concentration of 1 ng/mL (measured: compound; human pregnant women, male fetuses, cord serum; dose not given, paired maternal-cord samples, mean).
Cc1c(-c2ccc(N3CCc4cccc(C(=O)Nc5nc6ccccc6s5)c4C3)nc2C(=O)O)cnn1CC12CC3(C)CC(C)(C1)CC(OCCNCC[C@H](O)CO)(C3)C2 — result for “PR interval change”: -3 ms (beagle dog, anaesthetised; intravenous infusion, 0.3 mg/kg/min, 75 min; reference: vehicle).
